Published values from different studies.
Every numbered part comes from another study and shows a few of its results, in no order. Positions count from the first letter of the parent shown.
Chain of UniProt Q5VT25 (whole entry, looked up): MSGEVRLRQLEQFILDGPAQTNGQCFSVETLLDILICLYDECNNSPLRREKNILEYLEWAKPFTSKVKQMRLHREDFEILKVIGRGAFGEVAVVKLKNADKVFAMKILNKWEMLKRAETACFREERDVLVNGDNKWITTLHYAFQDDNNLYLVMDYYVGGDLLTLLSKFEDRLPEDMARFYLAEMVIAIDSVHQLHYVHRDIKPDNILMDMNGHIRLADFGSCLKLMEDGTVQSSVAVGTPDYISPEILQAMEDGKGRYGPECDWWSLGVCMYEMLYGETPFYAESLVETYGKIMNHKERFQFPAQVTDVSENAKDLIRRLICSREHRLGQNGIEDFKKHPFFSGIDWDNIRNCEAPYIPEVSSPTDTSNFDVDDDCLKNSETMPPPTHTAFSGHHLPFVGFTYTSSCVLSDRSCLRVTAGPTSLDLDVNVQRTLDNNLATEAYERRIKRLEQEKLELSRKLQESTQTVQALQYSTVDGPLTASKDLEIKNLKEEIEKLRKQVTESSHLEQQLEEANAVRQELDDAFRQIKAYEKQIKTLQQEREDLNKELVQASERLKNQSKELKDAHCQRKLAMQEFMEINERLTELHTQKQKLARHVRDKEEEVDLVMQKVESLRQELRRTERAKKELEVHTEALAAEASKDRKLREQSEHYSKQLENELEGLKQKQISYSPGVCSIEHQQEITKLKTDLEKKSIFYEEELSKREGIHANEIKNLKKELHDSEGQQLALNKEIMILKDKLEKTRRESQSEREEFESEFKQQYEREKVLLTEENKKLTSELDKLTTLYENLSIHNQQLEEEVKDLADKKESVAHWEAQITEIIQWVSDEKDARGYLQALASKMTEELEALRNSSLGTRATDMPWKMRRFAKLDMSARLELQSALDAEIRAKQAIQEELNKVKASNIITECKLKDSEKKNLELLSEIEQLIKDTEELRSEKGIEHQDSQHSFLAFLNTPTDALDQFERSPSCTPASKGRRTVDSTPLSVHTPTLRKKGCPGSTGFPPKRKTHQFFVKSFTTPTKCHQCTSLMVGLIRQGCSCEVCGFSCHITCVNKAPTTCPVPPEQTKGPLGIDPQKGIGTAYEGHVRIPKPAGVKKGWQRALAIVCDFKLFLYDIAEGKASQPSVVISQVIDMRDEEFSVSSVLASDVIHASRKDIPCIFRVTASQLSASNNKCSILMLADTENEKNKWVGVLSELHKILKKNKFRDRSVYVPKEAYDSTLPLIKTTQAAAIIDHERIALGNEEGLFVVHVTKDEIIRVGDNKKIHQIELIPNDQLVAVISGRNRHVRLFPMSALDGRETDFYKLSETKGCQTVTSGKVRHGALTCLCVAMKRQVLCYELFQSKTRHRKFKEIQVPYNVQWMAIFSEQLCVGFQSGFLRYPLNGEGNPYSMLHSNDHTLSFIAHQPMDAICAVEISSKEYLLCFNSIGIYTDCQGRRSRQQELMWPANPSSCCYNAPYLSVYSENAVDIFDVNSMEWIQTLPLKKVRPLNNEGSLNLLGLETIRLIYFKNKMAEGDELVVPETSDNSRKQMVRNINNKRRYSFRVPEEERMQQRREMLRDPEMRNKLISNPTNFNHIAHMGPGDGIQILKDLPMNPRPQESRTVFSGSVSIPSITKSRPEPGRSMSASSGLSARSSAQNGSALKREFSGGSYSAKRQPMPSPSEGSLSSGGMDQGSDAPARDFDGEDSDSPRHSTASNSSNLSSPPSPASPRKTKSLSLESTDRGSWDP

Set 1
Target: POU domain, class 5, transcription factor 1, POU domain (Pou5f1, Mus musculus, UniProt P20263, residues 131-289)
Chain of UniProt P20263 (131-289, looked up): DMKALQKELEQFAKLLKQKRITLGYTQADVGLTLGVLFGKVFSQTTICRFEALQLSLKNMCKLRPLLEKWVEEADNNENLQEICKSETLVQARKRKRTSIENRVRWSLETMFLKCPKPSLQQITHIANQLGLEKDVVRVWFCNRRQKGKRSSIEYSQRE
Method: Spec-seq
Form: double-stranded DNA, one strand shown
Medium: in vitro
Concentration: not given
Notes: whole probe, mean of replicates
Relative to: not given
Direction: lower = stronger binding
Constant ends, left off below: GAGTCGTCTCGTCAGCAC … CCGTAGAGCACTCAGGTC
Strand | relative binding energy
ATGCCTTG | 0.751 ln ratio
TGCGTAAT | 0.492 ln ratio
ATGCCGGA | 0.718 ln ratio
ATCAACAT | -1.28 ln ratio
CGATTAAT | 0.45 ln ratio
ATGCCAAG | 0.706 ln ratio
GCGTTAAT | 0.591 ln ratio
ATACGGAT | 0.42 ln ratio

Set 2
Target: CCNB3, cyclin fold, Cln2 fusion (human)
Method: yeast growth competition, sequencing
Medium: yeast
Notes: weak parent motif
Relative to: not given
Direction: higher = stronger binding
Starting sequence: CDC6 docking peptide (human); TLKGRRLVFDNQL; partner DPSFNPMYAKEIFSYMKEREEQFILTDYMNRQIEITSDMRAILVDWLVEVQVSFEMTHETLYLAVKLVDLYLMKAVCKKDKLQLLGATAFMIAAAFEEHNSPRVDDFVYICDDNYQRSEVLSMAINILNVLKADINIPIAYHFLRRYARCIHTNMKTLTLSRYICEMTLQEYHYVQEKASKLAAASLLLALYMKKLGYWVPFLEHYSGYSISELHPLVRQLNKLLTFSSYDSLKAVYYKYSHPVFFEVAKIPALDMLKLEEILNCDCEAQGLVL
Variant | normalised enrichment score
TLKGRRLVFDNQG [L13G] | 0.257
TLVGRRLVFDNQL [K3V] | 0.509
TLKGRRLVFDAQL [N11A] | 0.836
TLKGRRLVFTNQL [D10T] | 0.217
TLKWRRLVFDNQL [G4W] | 0.454
TLKVRRLVFDNQL [G4V] | 0.275
TLKGRRLVFDNQT [L13T] | -0.33
TLPGRRLVFDNQL [K3P] | 0.262

Single results of other studies
Substance | target | test | test system | conditions | how to read | measurement | result
PhoQ, residues 284 288 289 292 302 303 TASMAF | PhoP, residues 12 14 15 18 19 LHHSG (Escherichia coli, UniProt P23836) | Sort-seq, item: YFP reporter | E. coli | PhoQ-PhoP variant library, added: 10 µM Mg2+ | relative to: high Mg2+ state, higher = stronger signaling | fold induction | 24.6
O=C1Nc2ccc(Br)cc2/C1=C/c1cc2c([nH]1)CCCC2 | CDC42BPA (Homo sapiens, UniProt Q5VT25) | enzyme activity, inhibitor | – | 0.5 µM | relative to: control | remaining activity | 81.9%

Some of these lines once more (set 1):
Strand | relative binding energy
TGCGTAAT | 0.492 ln ratio
ATGCCTTG | 0.751 ln ratio
